Measurements collected from several papers.
Lines come from different studies, so protocols differ. ± gives the spread as reported.
T1: DNA aptamer; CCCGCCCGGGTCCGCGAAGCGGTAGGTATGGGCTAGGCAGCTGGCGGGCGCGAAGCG
Chain of UniProt P15145 (whole entry, looked up): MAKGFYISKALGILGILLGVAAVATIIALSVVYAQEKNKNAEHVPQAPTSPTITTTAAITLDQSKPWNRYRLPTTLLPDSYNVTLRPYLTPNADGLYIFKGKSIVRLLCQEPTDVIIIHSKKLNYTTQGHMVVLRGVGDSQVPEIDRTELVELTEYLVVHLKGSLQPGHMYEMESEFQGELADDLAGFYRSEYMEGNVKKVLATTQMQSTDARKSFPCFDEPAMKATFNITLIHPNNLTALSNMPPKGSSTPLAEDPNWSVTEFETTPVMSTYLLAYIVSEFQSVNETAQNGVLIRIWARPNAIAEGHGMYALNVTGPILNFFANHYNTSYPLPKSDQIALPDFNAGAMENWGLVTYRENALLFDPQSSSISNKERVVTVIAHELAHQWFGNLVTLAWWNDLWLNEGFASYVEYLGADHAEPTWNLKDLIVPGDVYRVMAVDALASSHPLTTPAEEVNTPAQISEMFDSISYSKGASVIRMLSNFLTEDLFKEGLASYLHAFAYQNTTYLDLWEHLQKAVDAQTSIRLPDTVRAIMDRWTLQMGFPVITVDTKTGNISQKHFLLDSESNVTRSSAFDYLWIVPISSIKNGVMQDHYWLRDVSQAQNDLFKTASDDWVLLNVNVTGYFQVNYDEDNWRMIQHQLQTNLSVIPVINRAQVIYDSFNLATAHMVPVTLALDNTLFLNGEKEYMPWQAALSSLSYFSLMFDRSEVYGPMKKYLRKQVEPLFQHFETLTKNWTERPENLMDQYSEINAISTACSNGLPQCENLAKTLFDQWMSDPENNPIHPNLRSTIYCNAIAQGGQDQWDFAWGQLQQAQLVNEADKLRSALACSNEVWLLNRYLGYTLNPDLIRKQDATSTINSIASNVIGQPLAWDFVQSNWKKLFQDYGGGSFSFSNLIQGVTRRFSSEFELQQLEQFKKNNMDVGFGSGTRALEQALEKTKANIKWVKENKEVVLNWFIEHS
Chain of UniProt P0ABQ4 (whole entry, looked up): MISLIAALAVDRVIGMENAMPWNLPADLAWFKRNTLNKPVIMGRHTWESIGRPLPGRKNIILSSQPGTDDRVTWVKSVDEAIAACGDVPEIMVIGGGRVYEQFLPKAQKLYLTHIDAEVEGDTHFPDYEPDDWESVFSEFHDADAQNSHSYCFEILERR
Chain of UniProt P11388 (whole entry, looked up): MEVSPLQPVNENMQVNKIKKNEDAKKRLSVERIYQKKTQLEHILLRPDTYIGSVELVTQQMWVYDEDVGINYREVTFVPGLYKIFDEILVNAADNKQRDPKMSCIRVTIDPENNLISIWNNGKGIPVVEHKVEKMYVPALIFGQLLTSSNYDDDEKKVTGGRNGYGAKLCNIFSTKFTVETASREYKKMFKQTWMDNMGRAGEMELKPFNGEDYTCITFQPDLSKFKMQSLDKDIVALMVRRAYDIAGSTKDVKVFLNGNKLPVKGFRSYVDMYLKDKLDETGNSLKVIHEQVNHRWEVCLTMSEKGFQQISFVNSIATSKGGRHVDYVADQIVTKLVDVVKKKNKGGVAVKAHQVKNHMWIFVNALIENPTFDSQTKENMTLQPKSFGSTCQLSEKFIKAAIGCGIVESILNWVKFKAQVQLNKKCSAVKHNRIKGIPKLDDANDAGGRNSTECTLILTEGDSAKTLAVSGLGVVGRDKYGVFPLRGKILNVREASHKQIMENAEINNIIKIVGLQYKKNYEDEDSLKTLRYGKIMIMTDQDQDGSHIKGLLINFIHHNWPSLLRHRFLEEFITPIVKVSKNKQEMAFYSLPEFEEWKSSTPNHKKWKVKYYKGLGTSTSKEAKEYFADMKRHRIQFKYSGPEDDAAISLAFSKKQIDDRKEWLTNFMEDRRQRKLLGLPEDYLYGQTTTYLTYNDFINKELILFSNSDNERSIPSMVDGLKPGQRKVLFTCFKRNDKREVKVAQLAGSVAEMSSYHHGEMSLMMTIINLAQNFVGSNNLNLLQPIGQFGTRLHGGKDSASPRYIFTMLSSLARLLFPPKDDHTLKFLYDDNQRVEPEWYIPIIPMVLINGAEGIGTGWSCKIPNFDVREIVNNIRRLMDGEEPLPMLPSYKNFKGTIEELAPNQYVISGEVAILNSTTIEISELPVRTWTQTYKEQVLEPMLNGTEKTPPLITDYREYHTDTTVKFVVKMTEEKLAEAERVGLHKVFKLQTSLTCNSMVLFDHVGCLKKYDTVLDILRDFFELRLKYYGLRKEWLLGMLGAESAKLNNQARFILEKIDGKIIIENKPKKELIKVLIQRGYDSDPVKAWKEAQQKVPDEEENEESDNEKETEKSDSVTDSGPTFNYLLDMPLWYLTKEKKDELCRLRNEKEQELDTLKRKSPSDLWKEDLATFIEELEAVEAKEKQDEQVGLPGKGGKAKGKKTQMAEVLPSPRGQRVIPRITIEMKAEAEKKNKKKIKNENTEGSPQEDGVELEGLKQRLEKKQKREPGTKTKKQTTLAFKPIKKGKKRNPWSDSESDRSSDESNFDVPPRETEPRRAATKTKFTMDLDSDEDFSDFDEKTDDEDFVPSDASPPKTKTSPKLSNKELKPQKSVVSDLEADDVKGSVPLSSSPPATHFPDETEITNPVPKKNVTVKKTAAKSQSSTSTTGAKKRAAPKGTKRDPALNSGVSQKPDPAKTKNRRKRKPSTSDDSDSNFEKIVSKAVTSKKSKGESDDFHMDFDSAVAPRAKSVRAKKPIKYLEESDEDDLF
Chain of UniProt Q70EK9 (whole entry, looked up): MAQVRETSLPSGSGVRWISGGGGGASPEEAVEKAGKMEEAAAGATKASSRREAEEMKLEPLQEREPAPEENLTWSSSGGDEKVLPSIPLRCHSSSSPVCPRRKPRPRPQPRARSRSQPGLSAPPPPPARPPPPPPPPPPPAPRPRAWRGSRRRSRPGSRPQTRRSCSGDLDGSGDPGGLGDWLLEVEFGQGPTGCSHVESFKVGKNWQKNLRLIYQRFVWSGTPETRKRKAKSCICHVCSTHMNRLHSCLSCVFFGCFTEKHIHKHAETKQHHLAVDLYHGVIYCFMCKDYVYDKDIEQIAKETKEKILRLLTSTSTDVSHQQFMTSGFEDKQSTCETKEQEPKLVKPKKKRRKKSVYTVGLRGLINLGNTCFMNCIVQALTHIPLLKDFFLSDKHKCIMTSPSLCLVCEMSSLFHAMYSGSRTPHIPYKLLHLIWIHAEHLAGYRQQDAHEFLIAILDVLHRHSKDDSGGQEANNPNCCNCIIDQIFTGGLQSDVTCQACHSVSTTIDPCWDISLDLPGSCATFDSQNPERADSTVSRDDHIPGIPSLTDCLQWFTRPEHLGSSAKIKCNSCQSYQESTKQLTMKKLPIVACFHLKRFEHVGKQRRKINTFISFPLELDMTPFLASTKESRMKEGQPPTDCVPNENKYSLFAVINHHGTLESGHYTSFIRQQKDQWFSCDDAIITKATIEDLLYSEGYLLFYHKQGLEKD

Structure (SMILES) = C[C@H]1O[C@@H](O[C@H]2[C@@H](O)C[C@H](O[C@H]3[C@@H](O)C[C@H](O[C@H]4CC[C@@]5(C)[C@H](CC[C@@H]6[C@@H]5CC[C@]5(C)[C@@H](C7=CC(=O)OC7)CC[C@]65O)C4)O[C@@H]3C)O[C@@H]2C)C[C@H](O)[C@@H]1O; tested on = Ubiquitin carboxyl-terminal hydrolase 51 (USP51, Homo sapiens, UniProt Q70EK9); test = enzyme activity, inhibitor; conditions = 5 µM; measurement = inhibition; result = 25%
Structure (SMILES) = OC[C@H]1O[C@@H](O[C@@H]2[C@@H](O)[C@H](O[C@@H]3[C@@H](O)[C@H](O[C@@H]4[C@@H](O)[C@H](O[C@@H]5[C@@H](O)[C@H](O[C@H]6[C@H](O)[C@@H](CO)OC(O)[C@@H]6O)O[C@H](CO)[C@H]5O)O[C@H](CO)[C@H]4O)O[C@H](CO)[C@H]3O)O[C@H](CO)[C@H]2O)[C@H](O)[C@@H](O)[C@@H]1O (stereo partly shown); tested on = uncharacterized protein (Bacteroides thetaiotaomicron, UniProt A0A173VPY3); test = ITC; conditions = pH 7.0, 25 °C; measurement = ΔH; result = -59.3 kcal/mol
Structure (SMILES) = [Ca+2]; tested on = uncharacterized protein (Bacteroides thetaiotaomicron, UniProt Q8A183); test = phosphatase activity, activator, phosphate release; conditions = 5 mM, EDTA-treated enzyme, with: substrate 20 mM; scale = relative to: activity with Mg2+; measurement = relative specific activity; result = 0.025
Structure (SMILES) = N#Cc1cc(Cc2ccc3c(ccc4ccccc43)c2C#N)cc2c1ccc1ccccc12; tested on = Aminopeptidase N (ANPEP, Sus scrofa, UniProt P15145); test = enzyme activity; conditions = 3 µM, 30 min preincubation, diluted 10-fold, unit not given; scale = relative to: untreated; measurement = remaining activity; result = 0.989 ± 0.012
Structure (SMILES) = CO/N=C(\C(=O)N[C@@H]1C(=O)N2C(C(=O)O)=C(COC(C)=O)CS[C@H]12)c1csc(N)n1; tested on = Salmonella enterica serovar Infantis; test = broth microdilution; test system = clinical isolate RKI-No 277/14; measurement = MIC; result = > 16 µg/mL
Structure (SMILES) = O=P(O)(O)OC1O[C@H](CO)[C@@H](O)[C@H](O)[C@@H]1O (stereo partly shown); tested on = uncharacterized protein (Bacteroides thetaiotaomicron, UniProt Q8A183); test = activator, phosphate release; conditions = concentration not given, with: Mg2+; measurement = phosphatase activity; result = inactive
Structure (SMILES) = N#CCC1CCN(c2nc(Nc3ccc(N4CCC(O)CC4)cc3)c3c(=O)[nH]ncc3n2)CC1; test = Olink multiplex, refers to: CDCP1; test system = human, serum; conditions = 80 mg, day 15, unit not given; scale = relative to: placebo; measurement = serum level change; result = -1.29
Structure (SMILES) = COC(=O)Nc1c(N)nc(-c2nn(Cc3ccccc3F)c3ncc(F)cc23)nc1N; test system = healthy male humans, plasma; conditions = oral, 10 mg once daily, phase I DDI study, with: sildenafil 100 mg; measurement = Cmax at steady state; result = 499 ng/mL
Structure (SMILES) = C=C1[C@@H](O)[C@@H]2O[C@]3(CC[C@H](/C=C/[C@@H](C)[C@@H]4CC(C)=C[C@@]5(O[C@H](C[C@@](C)(O)C(=O)O)CC[C@H]5O)O4)O3)CC[C@H]2O[C@@H]1[C@@H](O)C[C@H](C)[C@H]1O[C@@]2(CCCCO2)CC[C@H]1C; tested on = T1, DNA aptamer; test = microscale thermophoresis; conditions = pH 7.5, 25 °C, NaCl 150 mM; measurement = Kd; result = 0.0567 µM
Structure (SMILES) = Fc1ccccc1Cc1nc(-c2nc(C(F)(F)F)n[nH]2)cn2ccnc12; test system = healthy human subjects, both sexes; conditions = oral, 10 mg, fed; measurement = subjects with reproductive-breast TEAEs; result = 7.7%
Structure (SMILES) = COc1cc([C@@H]2c3cc4c(cc3[C@@H](O[C@@H]3O[C@@H]5CO[C@@H](C)O[C@H]5[C@H](O)[C@H]3O)[C@H]3COC(=O)[C@H]23)OCO4)cc(OC)c1O; tested on = DNA topoisomerase 2-alpha (TOP2A, Homo sapiens, UniProt P11388); test = DNA cleavage; conditions = 31.25 µM, replicate 2; measurement = linear DNA; result = 14.3%
Structure (SMILES) = [Co+2]; tested on = uncharacterized protein (Bacteroides thetaiotaomicron, UniProt Q8A183); test = phosphatase activity, activator, phosphate release; conditions = 5 mM, EDTA-treated enzyme, with: substrate 4 mM; scale = relative to: activity with Mg2+; measurement = relative specific activity; result = 0.041
Structure (SMILES) = Oc1ccc(Cc2ccc(Cl)cc2)c(O)c1; tested on = Dihydrofolate reductase (folA, Escherichia coli, UniProt P0ABQ4); test = differential scanning fluorimetry; conditions = estimate from thermal shift; measurement = Kd; result = 65.6 ± 11.1 µM

A few entries again:
Structure (SMILES) = Fc1ccccc1Cc1nc(-c2nc(C(F)(F)F)n[nH]2)cn2ccnc12; test system = healthy human subjects, both sexes; conditions = oral, 10 mg, fed; measurement = subjects with reproductive-breast TEAEs; result = 7.7%
